{"data": "Assay results collected from several papers", "LCK": "Tyrosine-protein kinase Lck (LCK, Homo sapiens, UniProt P06239)", "CHRM2": "Muscarinic acetylcholine receptor M2 (CHRM2, Homo sapiens, UniProt P08172)", "SLC18A3": "Vesicular acetylcholine transporter (SLC18A3, Homo sapiens, UniProt Q16572)", "CASP9": "Caspase-9 (CASP9, Homo sapiens, UniProt P55211)", "HTR6": "5-hydroxytryptamine receptor 6 (HTR6, Homo sapiens, UniProt P50406)", "Uncharacterized protein": "Uncharacterized protein (Trypanosoma cruzi, UniProt Q4DRC3)", "cathepsin L": "cathepsin L (Capra hircus, UniProt A0A452FFI6)", "KDM1A": "Lysine-specific histone demethylase 1A (KDM1A, Homo sapiens, UniProt O60341)", "DRD3": "D(3) dopamine receptor (DRD3, Homo sapiens, UniProt P35462)", "note": "Protocols differ between the studies behind these lines. ± gives the spread as reported.", "sequence of UniProt P08172 (whole entry, looked up)": "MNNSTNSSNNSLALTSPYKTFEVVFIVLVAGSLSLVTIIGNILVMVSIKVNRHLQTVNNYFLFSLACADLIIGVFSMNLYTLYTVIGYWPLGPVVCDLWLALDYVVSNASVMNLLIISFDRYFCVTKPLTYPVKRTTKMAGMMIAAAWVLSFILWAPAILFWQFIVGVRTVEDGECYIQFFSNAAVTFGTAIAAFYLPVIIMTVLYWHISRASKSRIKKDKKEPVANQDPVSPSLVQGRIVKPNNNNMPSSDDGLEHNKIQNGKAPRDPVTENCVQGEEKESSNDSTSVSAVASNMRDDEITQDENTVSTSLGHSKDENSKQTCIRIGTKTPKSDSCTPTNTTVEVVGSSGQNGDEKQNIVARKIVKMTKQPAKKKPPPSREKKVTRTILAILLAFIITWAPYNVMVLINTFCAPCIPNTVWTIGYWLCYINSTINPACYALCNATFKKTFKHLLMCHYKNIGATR", "sequence of UniProt Q16572 (whole entry, looked up)": "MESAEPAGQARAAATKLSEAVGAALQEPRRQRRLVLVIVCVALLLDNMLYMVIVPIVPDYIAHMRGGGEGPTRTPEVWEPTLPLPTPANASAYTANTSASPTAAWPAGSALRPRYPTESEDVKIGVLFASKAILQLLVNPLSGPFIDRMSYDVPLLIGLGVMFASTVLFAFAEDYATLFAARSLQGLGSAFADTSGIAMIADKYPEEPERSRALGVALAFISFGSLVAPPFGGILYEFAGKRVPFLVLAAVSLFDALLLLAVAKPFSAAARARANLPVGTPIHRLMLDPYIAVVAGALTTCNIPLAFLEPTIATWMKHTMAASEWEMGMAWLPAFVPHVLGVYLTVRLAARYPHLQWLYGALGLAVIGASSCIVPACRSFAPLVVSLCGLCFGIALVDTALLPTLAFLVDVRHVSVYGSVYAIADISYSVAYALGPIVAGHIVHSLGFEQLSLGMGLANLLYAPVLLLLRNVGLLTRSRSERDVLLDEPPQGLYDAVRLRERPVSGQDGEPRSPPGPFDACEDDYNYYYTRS", "sequence of UniProt P35462 (whole entry, looked up)": "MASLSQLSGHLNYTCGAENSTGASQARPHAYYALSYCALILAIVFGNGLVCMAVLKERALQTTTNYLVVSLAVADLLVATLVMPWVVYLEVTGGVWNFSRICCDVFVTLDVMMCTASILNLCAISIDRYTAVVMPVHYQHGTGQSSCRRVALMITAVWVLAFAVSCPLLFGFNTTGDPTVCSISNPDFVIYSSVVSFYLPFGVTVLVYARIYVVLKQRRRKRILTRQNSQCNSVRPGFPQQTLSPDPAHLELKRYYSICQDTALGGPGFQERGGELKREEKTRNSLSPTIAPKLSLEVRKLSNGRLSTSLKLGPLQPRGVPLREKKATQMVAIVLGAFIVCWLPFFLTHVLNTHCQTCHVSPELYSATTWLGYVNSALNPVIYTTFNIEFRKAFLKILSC", "sequence of UniProt P50406 (whole entry, looked up)": "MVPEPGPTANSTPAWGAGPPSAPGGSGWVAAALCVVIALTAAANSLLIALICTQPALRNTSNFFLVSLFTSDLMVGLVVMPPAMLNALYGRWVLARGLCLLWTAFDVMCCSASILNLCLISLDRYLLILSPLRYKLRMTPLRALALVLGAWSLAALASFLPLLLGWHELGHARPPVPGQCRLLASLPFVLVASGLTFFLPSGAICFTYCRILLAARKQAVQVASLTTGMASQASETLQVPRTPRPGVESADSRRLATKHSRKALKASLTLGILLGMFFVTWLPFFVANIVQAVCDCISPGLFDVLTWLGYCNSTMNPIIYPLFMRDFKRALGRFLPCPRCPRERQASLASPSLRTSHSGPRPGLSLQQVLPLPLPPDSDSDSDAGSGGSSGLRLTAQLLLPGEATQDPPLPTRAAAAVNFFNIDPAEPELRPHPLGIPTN", "sequence of UniProt P06239 (whole entry, looked up)": "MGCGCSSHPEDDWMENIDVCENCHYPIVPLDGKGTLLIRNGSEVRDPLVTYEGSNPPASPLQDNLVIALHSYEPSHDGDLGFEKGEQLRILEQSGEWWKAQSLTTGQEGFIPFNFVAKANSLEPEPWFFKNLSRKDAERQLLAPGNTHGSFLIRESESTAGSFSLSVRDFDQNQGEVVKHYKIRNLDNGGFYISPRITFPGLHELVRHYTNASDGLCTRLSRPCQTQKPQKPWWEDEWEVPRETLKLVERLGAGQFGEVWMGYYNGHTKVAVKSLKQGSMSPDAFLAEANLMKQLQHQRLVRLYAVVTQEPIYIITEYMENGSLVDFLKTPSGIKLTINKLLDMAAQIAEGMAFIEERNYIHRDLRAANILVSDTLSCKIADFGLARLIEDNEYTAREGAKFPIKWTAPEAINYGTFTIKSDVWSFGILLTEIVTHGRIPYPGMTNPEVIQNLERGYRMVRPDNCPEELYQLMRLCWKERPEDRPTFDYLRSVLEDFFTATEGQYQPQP", "sequence of UniProt P55211 (whole entry, looked up)": "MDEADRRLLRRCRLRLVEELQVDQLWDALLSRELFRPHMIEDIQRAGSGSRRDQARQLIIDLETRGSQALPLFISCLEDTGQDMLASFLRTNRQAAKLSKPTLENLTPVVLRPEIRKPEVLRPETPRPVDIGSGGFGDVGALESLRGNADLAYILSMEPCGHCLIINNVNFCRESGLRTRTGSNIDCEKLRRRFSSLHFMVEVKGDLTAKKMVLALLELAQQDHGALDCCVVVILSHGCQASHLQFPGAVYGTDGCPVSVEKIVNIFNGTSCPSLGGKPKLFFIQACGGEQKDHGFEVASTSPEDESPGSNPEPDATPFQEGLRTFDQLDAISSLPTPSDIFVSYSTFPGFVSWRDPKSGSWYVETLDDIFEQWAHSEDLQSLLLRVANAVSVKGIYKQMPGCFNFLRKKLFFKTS", "sequence of UniProt P45983 (whole entry, looked up)": "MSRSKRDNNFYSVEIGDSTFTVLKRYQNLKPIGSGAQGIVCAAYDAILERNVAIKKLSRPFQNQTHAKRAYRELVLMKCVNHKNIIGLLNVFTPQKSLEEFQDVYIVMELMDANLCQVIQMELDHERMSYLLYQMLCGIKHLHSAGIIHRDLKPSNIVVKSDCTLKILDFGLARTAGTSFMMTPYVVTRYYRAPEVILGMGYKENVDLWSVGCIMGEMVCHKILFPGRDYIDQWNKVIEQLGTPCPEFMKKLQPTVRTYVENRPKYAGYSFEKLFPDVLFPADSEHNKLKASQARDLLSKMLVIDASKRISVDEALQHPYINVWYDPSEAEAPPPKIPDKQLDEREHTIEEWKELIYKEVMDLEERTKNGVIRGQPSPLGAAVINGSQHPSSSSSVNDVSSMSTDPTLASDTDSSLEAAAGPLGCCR", "sequence of UniProt P51692 (whole entry, looked up)": "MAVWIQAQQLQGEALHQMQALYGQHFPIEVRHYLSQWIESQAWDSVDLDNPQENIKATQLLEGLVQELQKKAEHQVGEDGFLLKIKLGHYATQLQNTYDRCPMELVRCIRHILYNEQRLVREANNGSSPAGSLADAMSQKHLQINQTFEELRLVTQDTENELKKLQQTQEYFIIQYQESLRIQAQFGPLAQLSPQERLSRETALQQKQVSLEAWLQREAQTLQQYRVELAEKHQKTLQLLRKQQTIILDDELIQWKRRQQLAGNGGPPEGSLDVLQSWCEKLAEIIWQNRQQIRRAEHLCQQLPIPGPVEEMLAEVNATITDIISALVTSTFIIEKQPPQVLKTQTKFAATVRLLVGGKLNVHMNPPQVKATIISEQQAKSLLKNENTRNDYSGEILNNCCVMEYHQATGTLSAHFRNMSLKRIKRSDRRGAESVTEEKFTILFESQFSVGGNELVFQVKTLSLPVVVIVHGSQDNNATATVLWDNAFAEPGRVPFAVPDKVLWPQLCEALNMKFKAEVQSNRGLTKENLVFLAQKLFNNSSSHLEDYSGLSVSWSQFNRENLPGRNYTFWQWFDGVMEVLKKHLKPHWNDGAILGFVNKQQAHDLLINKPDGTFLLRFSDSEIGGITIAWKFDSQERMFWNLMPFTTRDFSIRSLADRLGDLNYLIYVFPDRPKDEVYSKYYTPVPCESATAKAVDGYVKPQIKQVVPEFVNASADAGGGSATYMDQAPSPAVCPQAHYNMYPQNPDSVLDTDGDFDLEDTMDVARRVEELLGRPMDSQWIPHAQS", "sequence of UniProt Q9GZQ6 (whole entry, looked up)": "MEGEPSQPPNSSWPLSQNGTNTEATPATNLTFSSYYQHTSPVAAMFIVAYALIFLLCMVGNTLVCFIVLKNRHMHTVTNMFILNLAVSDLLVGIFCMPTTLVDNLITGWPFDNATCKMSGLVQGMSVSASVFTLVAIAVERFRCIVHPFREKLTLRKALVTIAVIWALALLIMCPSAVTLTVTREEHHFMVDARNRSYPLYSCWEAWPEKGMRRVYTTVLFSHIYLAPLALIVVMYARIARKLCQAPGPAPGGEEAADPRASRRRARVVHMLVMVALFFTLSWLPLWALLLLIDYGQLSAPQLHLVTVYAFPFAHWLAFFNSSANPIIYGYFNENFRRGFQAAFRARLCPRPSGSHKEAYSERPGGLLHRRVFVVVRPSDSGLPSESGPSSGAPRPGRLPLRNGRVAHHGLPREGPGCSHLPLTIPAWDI", "sequence of UniProt P43235 (whole entry, looked up)": "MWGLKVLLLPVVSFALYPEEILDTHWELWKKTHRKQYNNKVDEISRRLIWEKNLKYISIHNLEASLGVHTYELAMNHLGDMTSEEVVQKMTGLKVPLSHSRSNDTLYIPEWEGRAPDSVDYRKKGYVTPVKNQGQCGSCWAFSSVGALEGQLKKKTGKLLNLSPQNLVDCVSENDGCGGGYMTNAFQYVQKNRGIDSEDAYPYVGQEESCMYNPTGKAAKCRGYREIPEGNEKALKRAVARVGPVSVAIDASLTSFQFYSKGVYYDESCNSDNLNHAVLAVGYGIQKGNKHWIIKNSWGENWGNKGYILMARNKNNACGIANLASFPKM", "sequence of UniProt P00761 (whole entry, looked up)": "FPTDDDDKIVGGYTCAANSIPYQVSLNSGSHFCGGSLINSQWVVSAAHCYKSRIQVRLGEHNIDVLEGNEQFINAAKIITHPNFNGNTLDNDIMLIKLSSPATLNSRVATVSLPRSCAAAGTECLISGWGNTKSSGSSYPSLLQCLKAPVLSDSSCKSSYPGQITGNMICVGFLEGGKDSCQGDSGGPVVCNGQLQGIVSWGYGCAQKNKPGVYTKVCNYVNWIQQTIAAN"}
{"Structure (SMILES)": "COc1cc2cc(C(=O)NCCc3ccc(O)cc3)c(C(=O)NCCc3ccc(O)cc3)cc2cc1O", "target": "EPHX2 (Homo sapiens, UniProt P34913)", "test": "enzyme activity, inhibitor", "Ki [µM]": 9}
{"Structure (SMILES)": "COc1cc(-c2nc3ccc(C(=O)NCCCN(C)C)cc3n2C2CCC2)cc(OC)c1OC", "target": "LCK", "test": "enzyme activity, inhibitor, FRET", "Ki [µM]": 0.071}
{"Structure (SMILES)": "CC(=C(C#N)C#N)c1ccc2cc(N(C)CCF)ccc2c1", "target": "Alpha-synuclein, filaments (SNCA, Homo sapiens, UniProt P37840)", "test": "radioligand displacement", "test system": "α-synuclein filaments", "conditions": "added: [3H]Me-BTA-1 4 nM", "Ki [µM]": 0.21}
{"Structure (SMILES)": "O=C1Nc2ccccc2N(C(=O)CN2CCC(CCCCN3CCC(OC(=O)C(c4ccccc4)c4ccccc4)CC3)CC2)c2ccccc21", "target": "CHRM2", "test": "ligand displacement, radioligand", "Ki [µM]": 0.00219}
{"Structure (SMILES)": "COc1ccc(C2(O)CCN(CCCCCC3=C4C(C)=CC(C)=[N+]4[B-](F)(F)n4c(C)cc(C)c43)CC2)cc1", "target": "Sodium- and chloride-dependent glycine transporter 2 (Homo sapiens, UniProt Q9Y345)", "test": "cell-free assay, mass spectrometry", "Ki [µM]": 0.398}
{"Structure (SMILES)": "O=C(c1ccc(NCCF)cc1)C1CCN(C2Cc3ccccc3CC2O)CC1 (single isomer, unassigned; (-))", "target": "SLC18A3", "test": "ligand displacement, radioligand", "Ki [µM]": 0.00031}
{"Structure (SMILES)": "N=C(N)NCCCC(=O)NCC1(Nc2ccccc2)CCN(Cc2ccccc2)CC1", "target": "NPFFR1 (Homo sapiens, UniProt Q9GZQ6)", "test": "cell-free assay", "Ki [µM]": 2.69}
{"Structure (SMILES)": "O=C(COc1cccc2ccccc12)NCc1ccc(OP(=O)(O)O)c(OP(=O)(O)O)c1", "target": "Signal transducer and activator of transcription 5B, SH2 (STAT5B, Homo sapiens, UniProt P51692)", "test": "ligand displacement, FP", "Ki [µM]": 0.24}
{"Structure (SMILES)": "O=C(c1ccc(SCCF)cc1)C1CCN(C2Cc3ccccc3CC2O)CC1 (single isomer, unassigned; (-))", "target": "SLC18A3", "test": "ligand displacement, radioligand", "Ki [µM]": 0.0022}
{"Structure (SMILES)": "CC(=O)N[C@@H](Cc1c[nH]c2ccccc12)C(=O)N[C@@H](CC(=O)O)C(=O)N[C@@H](CCCNC(=N)N)C(=O)N[C@@H](C)C(=O)N[C@H](C=O)CC(=O)O", "target": "CASP9", "test": "enzyme activity, inhibitor, fluorescence", "conditions": "pH 7", "Ki [µM]": 11}
{"Structure (SMILES)": "C#CCOC(=O)[C@@]1(C)C=C(C(=O)OC(C)(C)C)C(=O)CC1", "target": "MAPK8 (Homo sapiens, UniProt P45983)", "test": "ligand displacement, FP", "Ki [µM]": 17}
{"Structure (SMILES)": "Clc1cc(OCCCN2CCN(c3cccc4sccc34)CC2)ccc1CN1CCOCC1", "target": "HTR6", "test": "ligand displacement, radioligand", "Ki [µM]": 0.356}
{"Structure (SMILES)": "O=c1[nH]cnc2c([C@@H]3N[C@H](COP(=O)(O)O)[C@@H](O)[C@H]3O)c[nH]c12", "target": "Uncharacterized protein", "test": "IMP formation, uncompetitive inhibitor", "conditions": "pH 8.3, 37 °C, added: hypoxanthine 120 µM, PRPP 1 mM", "Ki [µM]": "16 ± 1"}
{"Structure (SMILES)": "CCCCCCCCN1[C@H](CCC)[C@H](O)[C@@H](O)[C@H](O)[C@H]1CO", "target": "beta-glucosidase (almond)", "test": "competitive inhibitor", "conditions": "added: p-nitrophenyl glucopyranoside", "Ki [µM]": "> 2000"}
{"Structure (SMILES)": "CNC(=O)C1CCN(c2cc(C)c(F)cc2NC(=O)c2ccc(-c3cc(O)ccc3C)c(C)c2)CC1", "target": "LCK", "test": "cell-free assay, TR-FRET", "Ki [µM]": 0.0106}
{"Structure (SMILES)": "COc1cccc(/C=C/C(=N/NC(N)=O)c2ccccc2)c1", "target": "cathepsin L", "test": "enzyme activity, competitive inhibitor", "test system": "goat liver enzyme", "conditions": "pH 6.0, added: Z-Phe-Arg-4-methoxy-β-naphthylamide", "Ki [µM]": "0.00471 ± 2e-05"}
{"Structure (SMILES)": "COc1cc(CN2CCOCC2)ccc1OCCCN1CCN(c2cccc3sccc23)CC1", "target": "HTR6", "test": "ligand displacement, radioligand", "Ki [µM]": 0.342}
{"Structure (SMILES)": "COc1ccc(CCCNCCCNCCCNCCCCNCCCN)cc1", "target": "KDM1A", "test": "enzyme activity, inhibitor, absorbance", "Ki [µM]": 14}
{"Structure (SMILES)": "CCCCCCSC[C@H]1CN(Cc2c[nH]c3c(N)ncnc23)C[C@@H]1O", "target": "MTA/SAH nucleosidase (Campylobacter jejuni subsp. jejuni, UniProt Z9IB28FKP7)", "test": "enzyme activity, inhibitor", "conditions": "slow-onset tight binding", "Ki [µM]": 0.00065}
{"Structure (SMILES)": "COc1ccc(CCCN[C@@H]2CCC[C@H]2CN[C@H]2CCC[C@@H]2CNCCCCN[C@H]2CCC[C@@H]2CN)cc1", "target": "KDM1A", "test": "enzyme activity, inhibitor", "Ki [µM]": 3.8}
{"Structure (SMILES)": "CC[C@H](C)[C@@H]1NC(=O)[C@@H]2CCCN2C(=O)[C@@H]2CCCN2C(=O)[C@H]([C@@H](C)CC)NC(=O)[C@H](CO)NC(=O)[C@H](CCCCN)NC(=O)[C@H]([C@@H](C)O)NC(=O)[C@@H]2CSSC[C@H](NC1=O)C(=O)N[C@@H](Cc1ccccc1)C(=O)N1CCC[C@H]1C(=O)N[C@@H](CC(=O)O)C(=O)NCC(=O)N[C@@H](CCCNC(=N)N)C(=O)N2", "target": "Trypsin (Sus scrofa, UniProt P00761)", "Ki [µM]": "0.026 ± 0.002"}
{"Structure (SMILES)": "NC1CN(CCCCC2CCN(CC(=O)N3c4ccccc4NC(=O)c4ccccc43)CC2)CCN(CC(=O)N2CCC(N3CCC(n4c(=O)[nH]c5ccccc54)CC3)CC2)C1 (centres unmarked)", "target": "CHRM2", "test": "ligand displacement, radioligand", "Ki [µM]": 0.000692}
{"Structure (SMILES)": "CCCCCCCCNC(=S)N1[C@H](CCC)[C@H](O)[C@@H](O)[C@H](O)[C@H]1CO", "target": "beta-glucosidase (almond)", "test": "competitive inhibitor", "conditions": "added: p-nitrophenyl glucopyranoside", "Ki [µM]": "> 2000"}
{"Structure (SMILES)": "Cn1c(=O)c(SCC(=O)NCCN2CCC(Cc3ccccc3)CC2)nc2ccccc21", "target": "DRD3", "test": "cell-free assay", "Ki [µM]": 0.641}
{"Structure (SMILES)": "Cc1nc(N=Nc2ccc(S(=O)(=O)O)cc2S(=O)(=O)O)c(COP(=O)(O)O)c(C=O)c1O", "target": "Ectonucleoside triphosphate diphosphohydrolase 2 (Rattus norvegicus, UniProt O35795)", "test": "enzyme activity, inhibitor", "conditions": "cell membranes", "Ki [µM]": 44.2}
{"Structure (SMILES)": "OC[C@@H]1[C@@H](O)[C@H](O)[C@@H](O)c2nccn21", "target": "sweet almond β-glucosidase", "test": "inhibitor", "conditions": "pH 5.2, added: 2,4-dinitrophenyl β-D-glucopyranoside", "Ki [µM]": "0.067 ± 0.004"}
{"Structure (SMILES)": "OC[C@H](OCc1ccccc1Cl)[C@H](O)C[S@@+]1C[C@@H](O)[C@H](O)[C@H]1CO", "target": "GAA (Homo sapiens, UniProt P10253)", "test": "enzyme activity, inhibitor, absorbance", "conditions": "pH 5.2", "Ki [µM]": 0.03}
{"Structure (SMILES)": "O=c1[nH]cnc2c(CNCC(O)CP(=O)(O)O)c[nH]c12 (racemic)", "target": "Uncharacterized protein", "test": "IMP formation, uncompetitive inhibitor", "conditions": "pH 8.3, 37 °C, added: hypoxanthine 120 µM, PRPP 1 mM", "Ki [µM]": "11 ± 1"}
{"Structure (SMILES)": "CC(C)c1noc(-c2ccc(-n3cnc(C(=O)NCc4ccco4)c3)nc2)n1", "target": "Alpha-synuclein, fibril (SNCA, Homo sapiens, UniProt P37840)", "test": "ligand displacement, radioligand", "Ki [µM]": 0.0126}
{"Structure (SMILES)": "CCC(=O)NCc1cc(C(=O)NCCN2CCN(CCCCC3CCN(CC(=O)N4c5ccccc5NC(=O)c5ccccc54)CC3)CC2)cc(C(=O)NCCN2CCN(CCCCC3CCN(CC(=O)N4c5ccccc5NC(=O)c5ccccc54)CC3)CC2)c1", "target": "CHRM2", "test": "ligand displacement, radioligand", "Ki [µM]": 0.000575}
{"Structure (SMILES)": "CCCCOc1ccc(C(=O)OCC[N+]2(C)CC=CCC2)cc1 (centres unmarked)", "target": "CHRM2", "test": "ligand displacement, radioligand", "conditions": "cell membranes", "Ki [µM]": 1.95}
{"Structure (SMILES)": "O=C(/C=C/c1ccc([N+](=O)[O-])cc1)c1ccccc1", "target": "cathepsin L", "test": "enzyme activity, competitive inhibitor", "test system": "goat liver enzyme", "conditions": "pH 6.0, added: Z-Phe-Arg-4-methoxy-β-naphthylamide", "Ki [µM]": "0.0277 ± 0.0003"}
{"Structure (SMILES)": "O=C(Nc1ccc(OC(F)(F)F)cc1)N1CCC(Cc2cccc(Oc3ccc(C(F)(F)F)cn3)c2)CC1", "target": "FAAH (Homo sapiens, UniProt O00519)", "test": "enzyme activity, inhibitor", "Ki [µM]": 0.077}
{"Structure (SMILES)": "CCC(=O)NC1CN(CCCCC2CCN(CC(=O)N3c4ccccc4NC(=O)c4ccccc43)CC2)CCN(CC(=O)N2CCC(N3CCC(n4c(=O)[nH]c5ccccc54)CC3)CC2)C1 (centres unmarked)", "target": "CHRM2", "test": "ligand displacement, radioligand", "Ki [µM]": 0.000776}
{"Structure (SMILES)": "COc1ccc(/C=C/C(=N/NC(N)=O)c2ccccc2)cc1", "target": "cathepsin L", "test": "enzyme activity, competitive inhibitor", "test system": "goat liver enzyme", "conditions": "pH 6.0, added: Z-Phe-Arg-4-methoxy-β-naphthylamide", "Ki [µM]": "0.00266 ± 3e-05"}
{"Structure (SMILES)": "O[C@@H]1Cc2ccccc2[C@H]1NCc1cn2ccc(Br)cc2n1", "target": "DRD3", "test": "ligand displacement, radioligand", "conditions": "cell membranes", "Ki [µM]": "> 10"}
{"Structure (SMILES)": "COc1ccccc1/C=C/C(=O)c1ccccc1", "target": "cathepsin L", "test": "enzyme activity, competitive inhibitor", "test system": "goat liver enzyme", "conditions": "pH 6.0, added: Z-Phe-Arg-4-methoxy-β-naphthylamide", "Ki [µM]": "0.0062 ± 2e-05"}
{"Structure (SMILES)": "C[C@H](NC(=O)[C@H](CCCNC(=N)N)NC(=O)[C@H](C)NC(=O)C1CC1)C(N)=O", "target": "WDR5 (Homo sapiens, UniProt P61964)", "test": "ligand displacement, FP", "Ki [µM]": 0.11}
{"Structure (SMILES)": "O=C1Nc2ccccc2N(C(=O)CN2CCC(CCCCN3CCN(CCOC(=O)C4c5ccccc5Oc5ccccc54)CC3)CC2)c2ccccc21", "target": "CHRM2", "test": "ligand displacement, radioligand", "Ki [µM]": 0.00151}
{"Structure (SMILES)": "C#CC(C)NC(=O)C(CC(C)(C)F)NC(c1ccc(-c2ccc(S(C)(=O)=O)cc2)cc1)C(F)(F)F (centres unmarked)", "target": "Cathepsin K (CTSK, Homo sapiens, UniProt P43235)", "test": "enzyme activity, inhibitor, fluorescence", "Ki [µM]": 3.3}
{"Structure (SMILES)": "CC1=CC[C@@H]2C[C@H]1C2(C)C", "target": "chemosensory protein 5 (Mythimna separata, UniProt A0A5H2NAD7)", "test": "binding, 1-NPN displacement", "conditions": "pH 5.0", "Ki [µM]": 3.94}
{"Structure (SMILES)": "CCCCN1[C@H](CCC)[C@H](O)[C@@H](O)[C@H](O)[C@H]1CO", "target": "beta-glucosidase (almond)", "test": "competitive inhibitor", "conditions": "added: p-nitrophenyl glucopyranoside", "Ki [µM]": "> 2000"}
{"Structure (SMILES)": "NCc1cc(C(=O)NCCN2CCN(CCCCC3CCN(CC(=O)N4c5ccccc5NC(=O)c5ccccc54)CC3)CC2)cc(C(=O)NCCN2CCN(CCOC(=O)C3c4ccccc4Oc4ccccc43)CC2)c1", "target": "CHRM2", "test": "ligand displacement, radioligand", "Ki [µM]": 0.000676}
{"Structure (SMILES)": "CC[C@H](C)[C@H](NC(C)=O)C(=O)N[C@H](C(=O)N[C@H](C(=O)N[C@@H](CCCCNC(C)=O)C(=O)N[C@H](C=O)CC(=O)O)C(C)C)[C@@H](C)O", "target": "CASP9", "test": "enzyme activity, inhibitor, fluorescence", "conditions": "pH 7", "Ki [µM]": 4.68}
